Measurements of several laboratories.
Protocols differ between the studies behind these lines. Numbers after ± are the reported error.

SMILES | test | test system | setting | how to read | endpoint | value
CC[C@H](C)[C@H](NC(=O)CCCCCN1/C(=C/C=C/C=C/C2=[N+](CC)c3ccc(S(=O)(=O)O)cc3C2(C)C)C(C)(C)c2cc(S(=O)(=O)O)ccc21)C(=O)N[C@@H](CCC(=O)O)C(=O)N1CCC[C@H]1C(=O)NC(CS(=O)(=O)O)P(=O)(Oc1ccc(CCNC(=O)C2CCN(S(=O)(=O)c3ccccc3-c3c4ccc(=[N+]5CCc6ccccc65)cc-4oc4cc(N5CCc6ccccc65)ccc34)CC2)cc1)c1ccccc1 (stereo partly shown) | item: granzyme B activity | BALB/c mice with 4T1 tumours, tumour | intravenous, 50 nmol |  | time to peak NIRF signal | 2 h
CC[C@H](C)[C@H](NC(=O)[C@H](CCCCN)NC(=O)CNC(=O)[C@H](CC(C)C)NC(=O)[C@H](Cc1ccccc1)NC(=O)[C@H](CCCCN)NC(=O)[C@H](CO)NC(=O)[C@H](Cc1ccccc1)NC(=O)[C@H](Cc1c[nH]c2ccccc12)NC(=O)[C@H](CCC(N)=O)NC(=O)[C@@H](NC(=O)[C@H](Cc1ccccc1)NC(=O)CCCCCNC(=O)CN1CCN(CC(=O)O)CCN(CC(=O)O)CCN(CC(=O)O)CC1)C(C)C)C(=O)N[C@@H](CCC(=O)O)C(=O)N1CCC[C@H]1C(=O)N[C@@H](CC(=O)O)C(=O)N[C@H](C(=O)N[C@@H](CO)C(=O)N[C@@H](CCC(N)=O)C(=O)N[C@H](C(=O)N[C@@H](CCC(N)=O)C(=O)N[C@@H](CC(=O)O)C(=O)N1CCC[C@H]1C(=O)N[C@@H](CC(N)=O)C(=O)N[C@@H](CC(=O)O)C(=O)N[C@@H](CCC(N)=O)C(=O)N[C@@H](Cc1ccc(O)cc1)C(=O)N[C@@H](CCC(=O)O)C(=O)N1CCC[C@H]1C(=O)N[C@@H](Cc1ccccc1)C(=O)O)C(C)C)C(C)C [copper-64 labelled] |  | C57BL/6 mice, male, tumour-free, heart | 24 h |  | tissue uptake | 2.73 ± 0.3 %ID/g
Cc1ccccc1-c1ccc(-c2nc(-c3ccc(CN(C)CCCC(=O)O)c([18F])c3)no2)cc1C(F)(F)F |  | rat, spleen | 30 min |  | tracer uptake | 0.36 %ID/g
COc1nc(CC=C(C)CC=CC(C)=CC(C)C(OC2OC(CO)C(O)C(O)C2O)C(C)=CCO)c(C)c(O)c1OC (stereo not shown) |  | C57BL/6 mouse, plasma | oral, 10 mg/kg |  | MRT(0-t) | 0.417 h
CCCCC[C@@H]1NC(=O)[C@@H](C)N(C)C(=O)[C@H](CCCCC)NC(=O)[C@@H](C)N(C)C(=O)[C@H](CCCCC)N(C)C(=O)[C@@H](C)N(C)C(=O)[C@H](CCCCC)NC(=O)[C@@H](C)N(C)C1=O | PAMPA, HPLC-UV |  | 500 µM, pH 7.4 |  | log Papp | -5.57 ± 0.06
N#[11C]c1ccc(-c2csc(NN=C3CCCC3)n2)cc1 |  | C57BL/6 mouse, male | intravenous, 3 MBq, 30 min |  | uptake in stomach with contents | 7.9 ± 1.53 %ID/g
CC(C(=O)O)n1nc(Cn2cc3cc(OCC[18F])c(Cl)cc3n2)c2ccccc2c1=O (racemic) | HPLC | nonhuman primate, plasma | 5 min post-injection | relative to: plasma radioactivity | parent radiotracer | 100%
CN[C@H](CC(C)C)C(=O)N[C@H]1C(=O)N[C@@H](CC(N)=O)C(=O)N[C@H]2C(=N)N[C@H]3C(=O)N[C@H](C(=O)N[C@H](C(=O)NCCCNC(=N)N)c4cc(O)cc(O)c4-c4cc3ccc4O)[C@H](O)c3ccc(c(Cl)c3)Oc3cc2cc(c3O[C@@H]2O[C@H](CO)[C@@H](O)[C@H](O)[C@H]2O[C@H]2C[C@](C)(NCc3ccc(-c4ccc(Cl)cc4)cc3)[C@H](O)[C@H](C)O2)Oc2ccc(cc2Cl)[C@H]1O |  | mouse | intravenous, 25 mg/kg |  | half-life | 5 h
CN1Cc2cc(Cl)ccc2-n2c(nnc2C2CCN(c3cccc([18F])n3)CC2)C1 |  | C57BL/6 mouse male, heart | intravenous, 3.7 MBq, 1 min |  | tissue uptake | 11.6 ± 4.48 %ID/g
O=C1NC2(CC2)COc2ncc(F)cc2[C@H]2COCCN2c2ccn3ncc1c3n2 |  | Sprague-Dawley rat, female, serum | oral, 2.5 mg/kg/day, 4 weeks daily, end of treatment |  | potassium | 4 ± 0.17 mmol/L
N=C(N)NCCC[C@H](NC(=O)[C@H](CCCNC(=N)N)NC(=O)[C@H](CCCNC(=N)N)NC(=O)[C@H](CCC(N)=O)NC(=O)[C@H](CCCNC(=N)N)NC(=O)[C@H](CCCNC(=N)N)NC(=O)[C@H](CCCCN)NC(=O)[C@H](CCCCN)NC(=O)[C@H](CCCNC(=N)N)NC(=O)CNC(=O)[C@H](Cc1ccc(O)cc1)NC(=O)[C@H](Cc1ccccc1)NC(=O)[C@H](Cc1ccccc1)NC(=O)[C@H](Cc1ccccc1)NC(=O)Cc1ccc2ccccc2c1)C(=O)O |  | C57BL/6 mice | intraperitoneal, 10 mg/kg, 48 h | direction not given | health score | 5
CSCC[C@H](N)C(=O)N[C@@H](C)C(=O)N[C@@H](CCCNC(=N)N)C(=O)N[C@@H](CCCNC(=N)N)C(=O)N[C@@H](CC(=O)O)C(=O)N[C@@H](CCCCN)C(=O)N[C@H](C(=O)N[C@@H](CC(=O)O)C(=O)N[C@@H](Cc1ccccc1)C(=O)N[C@@H](C)C(=O)N[C@@H](CCCNC(=N)N)C(=O)N[C@@H](CCCNC(=N)N)C(=O)N[C@@H](CCCNC(=N)N)C(=O)N[C@@H](CCCNC(=N)N)C(=O)NCCCCCC(=O)NCCCCC(NC(=O)CCCCCNC(=O)[C@H](CCCNC(=N)N)NC(=O)[C@H](CCCNC(=N)N)NC(=O)[C@H](CCCNC(=N)N)NC(=O)[C@H](CCCNC(=N)N)NC(=O)[C@H](C)NC(=O)[C@H](Cc1ccccc1)NC(=O)[C@H](CC(=O)O)NC(=O)[C@@H](NC(=O)[C@H](CCCCN)NC(=O)[C@H](CC(=O)O)NC(=O)[C@H](CCCNC(=N)N)NC(=O)[C@H](CCCNC(=N)N)NC(=O)[C@H](C)NC(=O)[C@@H](N)CCSC)[C@@H](C)O)C(=O)NCCCCC(NC(=O)C(CCCCNC(=O)CCCCCNC(=O)[C@H](CCCNC(=N)N)NC(=O)[C@H](CCCNC(=N)N)NC(=O)[C@H](CCCNC(=N)N)NC(=O)[C@H](CCCNC(=N)N)NC(=O)[C@H](C)NC(=O)[C@H](Cc1ccccc1)NC(=O)[C@H](CC(=O)O)NC(=O)[C@@H](NC(=O)[C@H](CCCCN)NC(=O)[C@H](CC(=O)O)NC(=O)[C@H](CCCNC(=N)N)NC(=O)[C@H](CCCNC(=N)N)NC(=O)[C@H](C)NC(=O)[C@@H](N)CCSC)[C@@H](C)O)NC(=O)CCCCCNC(=O)[C@H](CCCNC(=N)N)NC(=O)[C@H](CCCNC(=N)N)NC(=O)[C@H](CCCNC(=N)N)NC(=O)[C@H](CCCNC(=N)N)NC(=O)[C@H](C)NC(=O)[C@H](Cc1ccccc1)NC(=O)[C@H](CC(=O)O)NC(=O)[C@@H](NC(=O)[C@H](CCCCN)NC(=O)[C@H](CC(=O)O)NC(=O)[C@H](CCCNC(=N)N)NC(=O)[C@H](CCCNC(=N)N)NC(=O)[C@H](C)NC(=O)[C@@H](N)CCSC)[C@@H](C)O)C(N)=O)[C@@H](C)O (stereo partly shown) |  | C57BL/6 mouse female, pancreas | dose not given, 3 h | relative to: total | mean tissue distribution | 1.15%
CC[C@H](C)[C@@H]1NC(=O)[C@H](Cc2ccc(O)cc2)NC(=O)[C@@H](N)CSCSC[C@@H](C(=O)N2CCC[C@H]2C(=O)N[C@@H](CC(C)C)C(=O)NCC(N)=O)NC(=O)[C@H](CC(N)=O)NC(=O)[C@H](CCC(N)=O)NC1=O |  | phosphate buffer | 0.1 mg/mL, pH 2.0, 40 °C |  | half-life | 646 h

Excerpt of the above:
SMILES | test | test system | setting | how to read | endpoint | value
N=C(N)NCCC[C@H](NC(=O)[C@H](CCCNC(=N)N)NC(=O)[C@H](CCCNC(=N)N)NC(=O)[C@H](CCC(N)=O)NC(=O)[C@H](CCCNC(=N)N)NC(=O)[C@H](CCCNC(=N)N)NC(=O)[C@H](CCCCN)NC(=O)[C@H](CCCCN)NC(=O)[C@H](CCCNC(=N)N)NC(=O)CNC(=O)[C@H](Cc1ccc(O)cc1)NC(=O)[C@H](Cc1ccccc1)NC(=O)[C@H](Cc1ccccc1)NC(=O)[C@H](Cc1ccccc1)NC(=O)Cc1ccc2ccccc2c1)C(=O)O |  | C57BL/6 mice | intraperitoneal, 10 mg/kg, 48 h | direction not given | health score | 5
